Published values pooled from the literature.
Compare with care: the assays were run in different laboratories. ± gives the spread as reported.

Compound	assay	test system	setting	measurement	result
C=CCNc1c(O)cc2c(O)c1C[C@@H](C)C[C@H](OC)[C@H](O)[C@@H](C)/C=C(\C)[C@H](OC(N)=O)[C@@H](OC)/C=C\C=C(/C)C(=O)N2	measured: first-degree AV block	patients with unresectable or metastatic GIST, STS or other tumours	intravenous, 400 mg/m^2	treatment-emergent adverse events	16%
C=CC(=O)N1CC[C@H](n2nc(C#Cc3cc(OC)cc(OC)c3)c3c(N)ncnc32)C1		human patients, serum	oral, dose not given, QD, before phosphate binder start, added: phosphate binder for ≥2 cycles	serum phosphate	5.27 mg/dL
CC(=O)c1c(C)c2cnc(Nc3ccc(C4CCN(CCS(C)(=O)=O)CC4)cn3)nc2n(C2CCCC2)c1=O		HR+/HER2- advanced breast cancer patients	oral, dose not given, all grades, dose escalation, sample B patients	patients with leukopenia	78.9%
C[C@]1(CO)Cc2ncn(-c3ccc(C#N)c(Cl)c3)c2C(=O)O1		human	10 mg, European food-effect part, fasted	drug-related TEAEs	25%
CCc1ccc(CC/C=C/c2ccc3c(c2)C(=O)CC3)cc1		Sprague-Dawley rat, male, blood	oral, 30 mg/kg/day, 14 days	mean platelet volume	11.3 fL
Clc1ccc(-c2ccccc2)cc1		female Sprague-Dawley rats, serum	inhalation, 23 µg/rat, 0 h after exposure	total protein	5 ± 1 g/dL
N#Cc1ccc(N2CCN(Cc3ccc(COc4cccc5c4CN([C@H]4CCC(=O)NC4=O)C5=O)cc3)CC2)c(F)c1	population PK model	human	oral, dose not given, BLQ concentrations excluded	peripheral volume	255 L
C[C@@H]1NC(=O)[C@H](CCCCNC(=O)CO/N=C/C(=O)NCCCC[C@@H]2NC(=O)[C@@H](Cc3ccccc3)NC(=O)[C@H](CC(=O)O)NC(=O)CNC(=O)[C@H](CCCNC(=N)N)NC2=O)NC(=O)CNC(=O)[C@@H]2CCCN2C(=O)[C@H](CCCCNC(=O)CO/N=C/C(=O)NCCCC[C@@H]2NC(=O)[C@@H](Cc3ccccc3)NC(=O)[C@H](CC(=O)O)NC(=O)CNC(=O)[C@H](CCCNC(=N)N)NC2=O)NC(=O)[C@H](CCCCNC(=O)CN2CCCNCCNCCCNCC2)NC(=O)[C@H](CCCCNC(=O)CO/N=C/C(=O)NCCCC[C@@H]2NC(=O)[C@@H](Cc3ccccc3)NC(=O)[C@H](CC(=O)O)NC(=O)CNC(=O)[C@H](CCCNC(=N)N)NC2=O)NC(=O)CNC(=O)[C@@H]2CCCN2C(=O)[C@H](CCCCNC(=O)CO/N=C/C(=O)NCCCC[C@@H]2NC(=O)[C@@H](Cc3ccccc3)NC(=O)[C@H](CC(=O)O)NC(=O)CNC(=O)[C@H](CCCNC(=N)N)NC2=O)NC1=O [copper-64 labelled]	RP-HPLC	mouse serum	24 h, 37 °C	intact fraction	98.8%
O=S(=O)(Nc1ccccc1)c1ccc(NC(=S)Nc2ccccc2)cc1	measured: Ca	female mouse, blood	oral, 20 mg/kg daily, 14 days	blood chemistry level	9.77 mg/dL
CN(C)C1(CNC(=O)c2ccc3c(c2)CCN3C(=O)c2ccccc2)CCOCC1		male C57BL/6 mice	intraperitoneal, 50 mg/kg, 120 min	unbound plasma concentration	153 nM
N#C/N=C1\SCCN1Cc1ccc(Cl)nc1		soil	28 days, nominal 1.1	concentration	0.05 mg/kg dry soil
CC(C)C[C@H](NC(=O)[C@H](CCCCN)NC(=O)OCC1c2ccccc2-c2ccccc21)C(=O)N[C@H](C(=O)N[C@@H](Cc1ccccc1)C(=O)N[C@@H](Cc1ccccc1)C(=O)N[C@@H](CCCCN)C(=O)NCC(=O)N[C@@H](Cc1ccccc1)C(=O)N[C@@H](C)C(=O)N[C@@H](Cc1c[nH]c2ccccc12)C(=O)N[C@@H](CC(N)=O)C(=O)N[C@H](C(=O)N[C@H]1CSSC[C@@H](C(=O)N[C@@H](Cc2c[nH]cn2)C(=O)N[C@@H](CCCNC(=N)N)C(=O)N[C@@H](CCCNC(=N)N)C(=O)N[C@@H](C)C(=O)N[C@@H](CC(N)=O)C(N)=O)NC(=O)[C@H](C(C)C)NC(=O)[C@H](CCCNC(=N)N)NC(=O)[C@H](C(C)C)NC(=O)CNC(=O)[C@H](CC(N)=O)NC(=O)[C@H](CCCNC(=N)N)NC(=O)[C@H](Cc2ccc(O)cc2)NC(=O)[C@H](C(C)C)NC1=O)C(C)C)C(C)C	circular dichroism, measured: β-Turn	PBS	80 µM, pH 7.4	secondary structure content	19%
CN1CCN(S(=O)(=O)c2cc([N+](=O)[O-])ccc2N(CCOS(C)(=O)=O)CCOS(C)(=O)=O)CC1		naive NOD/SCID mice, pooled blood	intraperitoneal, 12.5 mg/kg, week 4	globulin	15 g/L
CN1CC[C@@H](c2c(O)cc(O)c3c(=O)cc(-c4ccc(C(F)(F)F)cc4Cl)oc23)[C@@H]1CO	measured: Nausea	B-cell malignancies	oral, 200 mg, intermittent dosing	patients with adverse event	100%

Repeated from above:
Compound	assay	test system	setting	measurement	result
N#C/N=C1\SCCN1Cc1ccc(Cl)nc1		soil	28 days, nominal 1.1	concentration	0.05 mg/kg dry soil
